Experimental data collected from several papers.
Compare with care: the assays were run in different laboratories. Converted amounts (≈) assume the structure as drawn. Bridge positions count the residues as written; N and C are the ends. Bridges are numbered along the chain shown (N, C = ends). Where no end group is shown, it is not given here. Ends that are not written are not given here. * marks the point of attachment.
Organism: Staphylococcus aureus

| Molecule | assay | system | conditions | how to read | quantity | result |
| --- | --- | --- | --- | --- | --- | --- |
| CCCCCCCOc1c(OC)cc(NC(C)CCCNC(=O)C(N)Cc2cc3ccccc3[nH]2)c2nc(C(C)(C)C)ccc12 (stereo not drawn) | microbial growth | ATCC33591 MRSA | drug-resistant strain |  | IC50 | 2.68 µg/mL (≈ 4.35 µM) |
| CC[C@H](C)[C@H](NC(=O)[C@H](C)NC(=O)[C@@H](NC(=O)[C@H](C)NC(=O)CNC(=O)[C@H](CCSC)NC(=O)[C@H](CCC(N)=O)NC(=O)[C@H](CC(C)C)NC(=O)[C@H](CO)NC(=O)[C@@H](N)Cc1ccc(O)cc1)[C@@H](C)O)C(=O)N[C@@H](CCCCN)C(=O)N[C@@H](CCC(N)=O)C(=O)N[C@H](C(=O)N[C@@H](CCCCN)C(=O)N[C@@H](CCCCN)C(=O)N[C@@H](CC(C)C)C(=O)N[C@@H](Cc1ccccc1)C(=O)N[C@@H](CCCCN)C(=O)N[C@@H](CCCCN)C(=O)N[C@@H](CCCCN)C(=O)NCC(=O)NCC(N)=O)C(C)C |  | ATCC 25923 | 24 h, 37 °C |  | MBC | 78 µM |
| CCCCCCOc1c(OC)cc(NC(C)CCCNC(=O)C(N)Cc2cnc[nH]2)c2nc(C(C)(C)C)ccc12 (stereo not drawn) | microbial killing | ATCC33591 MRSA | drug-resistant strain |  | MBC | 20 µg/mL |
| FFPKVAGVAAKVLKKFCTISKKC (disulfide 17-23 (inferred)) (disulfide) |  | MRSA 12493 | 18 h, 37 °C |  | MBC | > 128 µM |
| eremomycin pyrrolidide |  | 10, female SHK mice, sepsis | intravenous, 30 min after infection, 10 days observation |  | dose for 100% survival | 2.5 mg/kg |
| CC[C@H](C)[C@H](NC(=O)[C@@H](NC(=O)CN)C(C)C)C(=O)N[C@@H](Cc1ccccc1)C(=O)N[C@@H](CC(N)=O)C(=O)N[C@@H](C)C(=O)N[C@@H](CC(C)C)C(=O)N[C@@H](CCCCN)C(=O)NCC(=O)N[C@H](C(=O)N[C@@H](C)C(=O)N[C@@H](CCCCN)C(=O)N[C@H](C(=O)N[C@H](C(=O)N[C@@H](C)C(=O)N[C@@H](C)C(=O)N[C@@H](CCC(N)=O)C(=O)N[C@@H](CC(C)C)C(=O)N[C@@H](CC(C)C)C(=O)N[C@@H](CCCCN)C(N)=O)C(C)C)[C@@H](C)O)C(C)C | persister cells in biofilm | MRSA ATCC BAA-1707 | together with: vancomycin 4 µg/mL |  | MBEC | 512 µM |
| CC(C)C[C@H](NC(=O)[C@H](CCCCN)NC(=O)[C@H](CCCNC(=N)N)NC(=O)[C@@H](NC(=O)[C@H](CCCCN)NC(=O)[C@H](CCCCN)NC(=O)[C@@H](NC(=O)[C@H](Cc1ccccc1)NC(=O)[C@H](CCCNC(=N)N)NC(=O)[C@@H](N)CCCNC(=N)N)C(C)C)C(C)C)C(=O)N[C@H](C(=O)N[C@@H](CCCCN)C(=O)O)C(C)C | bacterial killing, colony count | ATCC 12600 | 1 h, pH 7, 37 °C |  | EC50 | 6.6 µg/mL (≈ 4.24 µM) |
| CO/N=C(\C(=O)N[C@@H]1C(=O)N2C(C(=O)O)=C(CSc3nc(=O)c(=O)[nH]n3C)CS[C@H]12)c1csc(N)n1 | checkerboard titration | ATCC 38591 oxacillin-resistant | together with: ranalexin |  | FIC index | 1 |
| CCCCCCCOc1c(OC)cc(NC(C)CCCNC(=O)C(N)CCCCN)c2nc(C(C)(C)C)ccc12 (stereo not drawn) | bacterial growth | MRSA ATCC 33591 |  |  | IC50 | > 20 µg/mL |
| CC[C@H](C)[C@H](NC(=O)[C@H](C)NC(=O)[C@@H](NC(=O)[C@H](C)NC(=O)CNC(C)=O)[C@@H](C)O)C(=O)N[C@@H](CCCCN)C(=O)N[C@@H](CCC(N)=O)C(=O)N[C@H](C(=O)N[C@@H](CCCCN)C(=O)N[C@@H](CCCCN)C(=O)N[C@@H](CC(C)C)C(=O)N[C@@H](Cc1ccccc1)C(=O)N[C@@H](CCCCN)C(=O)N[C@@H](CCCCN)C(=O)N[C@@H](CCCCN)C(=O)NCC(=O)NCC(N)=O)C(C)C |  | ATCC 25923 | 24 h, 37 °C |  | MBC | > 620 µM |
| Myristoyl-FCPRRYKQIGTGLPGTKCK (disulfide 2-18 (inferred)) (N-myristoyl, disulfide; Myristoyl = CCCCCCCCCCCCCC(=O)*) |  | ATCC 8530 | MBC, 2 h, pH 7.4, 37 °C, together with: E. coli K-235 LPS at peptide:LPS 1:5 w/w |  | antibacterial activity | inhibited |
| CCCCCCCCOc1c(OC)cc(NC(C)CCCN)c2nc(C(C)(C)C)cc(C)c12 (stereo not drawn) |  | MRSA ATCC 33591 |  |  | MBC | > 20 µg/mL |
| CC[C@H](C)[C@H](NC(=O)[C@@H](NC(=O)CN)C(C)C)C(=O)N[C@@H](Cc1ccccc1)C(=O)N[C@@H](CC(N)=O)C(=O)N[C@@H](C)C(=O)N[C@@H](CC(C)C)C(=O)N[C@@H](CCCCN)C(=O)NCC(=O)N[C@H](C(=O)N[C@@H](C)C(=O)N[C@@H](CCCCN)C(=O)N[C@H](C(=O)N[C@H](C(=O)N[C@@H](C)C(=O)N[C@@H](C)C(=O)N[C@@H](CCC(N)=O)C(=O)N[C@@H](CC(C)C)C(=O)N[C@@H](CC(C)C)C(=O)N[C@@H](CCCCN)C(=O)N[C@@H](CCCCN)C(N)=O)C(C)C)[C@@H](C)O)C(C)C | persister cells in biofilm | MRSA ATCC BAA-1707 | together with: vancomycin 4 µg/mL |  | MBEC | 256 µM |
| CCCCCOc1c(OC)cc(NC(C)CCCNC(=O)C(N)C(C)CC)c2nc(C(C)(C)C)ccc12 (stereo not drawn) | microbial growth | ATCC33591 MRSA | drug-resistant strain |  | IC50 | 5.46 µg/mL (≈ 10.6 µM) |
| CC[C@H](C)[C@H](NC(=O)[C@H](CCCCN)NC(=O)[C@H](CCC(=O)O)NC(=O)[C@H](CCCCN)NC(=O)[C@H](CO)NC(=O)[C@H](CCCCN)NC(=O)[C@H](CCCNC(=N)N)NC(=O)[C@H](Cc1ccccc1)NC(=O)[C@H](Cc1ccccc1)NC(=O)[C@H](CC(=O)O)NC(=O)CNC(=O)[C@H](CC(C)C)NC(=O)[C@@H](N)CC(C)C)C(=O)NCC(=O)N[C@@H](CCCCN)C(=O)N[C@@H](CCC(=O)O)C(=O)N[C@@H](Cc1ccccc1)C(=O)N[C@@H](CCCCN)C(=O)N[C@@H](CCCNC(=N)N)C(=O)N[C@H](C(=O)N[C@H](C(=O)N[C@@H](CCC(N)=O)C(=O)N[C@@H](CCCNC(=N)N)C(=O)N[C@H](C(=O)N[C@@H](CCCCN)C(=O)N[C@@H](CC(=O)O)C(=O)N[C@@H](Cc1ccccc1)C(=O)N[C@@H](CC(C)C)C(=O)N[C@@H](CCCNC(=N)N)C(=O)N[C@@H](CC(N)=O)C(=O)N[C@@H](CC(C)C)C(=O)N[C@H](C(=O)N1CCC[C@H]1C(=O)N[C@@H](CCCNC(=N)N)C(=O)N[C@H](C(=O)N[C@@H](CCC(=O)O)C(=O)N[C@@H](CO)C(=O)O)[C@@H](C)O)C(C)C)[C@@H](C)CC)C(C)C)[C@@H](C)CC |  | JE2 SAUSA300_1097 pyrF transposon mutant | 12.5% TSB | baseline: wild type over mutant | MIC ratio | 2 fold |
| ACPIFTKIQGTYRGKAKCK (disulfide 2-18 (inferred)) (disulfide) |  | ATCC 8530 | MBC, 2 h, pH 7.4, 37 °C, together with: E. coli K-235 LPS at peptide:LPS 1:5 w/w |  | antibacterial activity | inhibited |
| CCCCCCOc1c(OC)cc(NC(C)CCCN)c2nc(C(C)(C)C)cc(C)c12 (stereo not drawn) | microbial killing | ATCC33591 MRSA | drug-resistant strain |  | MBC | 10 µg/mL |
| CC(=O)NC(C)(C)C(=O)N1CCC[C@H]1C(=O)NC(C)(C)C(=O)N[C@@H](C)C(=O)NC(C)(C)C(=O)N[C@@H](C)C(=O)N[C@@H](CCC(N)=O)C(=O)NC(C)(C)C(=O)N[C@H](C(=O)NC(C)(C)C(=O)NCC(=O)N[C@@H](CC(C)C)C(=O)NC(C)(C)C(=O)N1CCC[C@H]1C(=O)N[C@H](C(=O)NC(C)(C)C(=O)NC(C)(C)C(=O)N[C@@H](CCC(=O)O)C(=O)N[C@@H](CCC(N)=O)C(=O)N[C@H](CO)Cc1ccccc1)C(C)C)C(C)C |  | ATCC 8530 |  |  | MBC | 16 µM |
| CCCCCOc1c(OC)cc(NC(C)CCCNC(=O)C(N)Cc2ccccc2)c2nc(C(C)(C)C)ccc12 (stereo not drawn) | microbial killing | ATCC33591 MRSA | drug-resistant strain |  | MBC | 20 µg/mL |
| CC[C@H]1OC(=O)[C@H](C)[C@@H](O[C@H]2C[C@@](C)(OC)[C@@H](O)[C@H](C)O2)[C@H](C)[C@@H](O[C@@H]2O[C@H](C)C[C@H](N(C)C)[C@H]2O)[C@](C)(OC)C[C@@H](C)C(=O)[C@H](C)[C@@H](O)[C@]1(C)O | checkerboard titration | ATCC 38591 oxacillin-resistant | together with: ranalexin |  | FIC index | 0.25 |
| CCCCCCOc1c(OC)cc(NC(C)CCCNC(=O)C(N)CCSC)c2nc(C(C)(C)C)ccc12 (stereo not drawn) | microbial growth | ATCC33591 MRSA | drug-resistant strain |  | IC50 | 4.77 µg/mL (≈ 8.72 µM) |
| CC(C)C[C@H](NC(=O)[C@H](CCCCN)NC(=O)[C@H](CC(C)C)NC(=O)[C@H](Cc1c[nH]c2ccccc12)NC(=O)[C@H](CCCNC(=N)N)NC(=O)[C@H](Cc1ccccc1)NC(=O)[C@H](CCCNC(=N)N)NC(=O)[C@H](CCCNC(=N)N)NC(=O)[C@H](CCCCN)NC(=O)[C@@H](N)CCCCN)C(=O)N[C@@H](CCCCN)C(=O)O | bacterial killing, colony count | ATCC 12600 | 1 h, pH 7, 37 °C |  | EC50 | 10.6 µg/mL (≈ 6.8 µM) |
| CC[C@H](C)[C@H](N)C(=O)N[C@@H](CC(C)C)C(=O)N1CCC[C@H]1C(=O)N[C@@H](Cc1c[nH]c2ccccc12)C(=O)N[C@@H](CCCCN)C(=O)N[C@@H](Cc1c[nH]c2ccccc12)C(=O)N1CCC[C@H]1C(=O)N[C@@H](Cc1c[nH]c2ccccc12)C(=O)N[C@@H](Cc1c[nH]c2ccccc12)C(=O)N1CCC[C@H]1C(=O)N[C@@H](Cc1c[nH]c2ccccc12)C(=O)N[C@@H](CCCNC(=N)N)C(=O)N[C@@H](CCCNC(=N)N)C(N)=O | broth microdilution | methicillin-susceptible clinical isolates, Mueller-Hinton broth | 18 h, 35 °C |  | MIC50 | 4 µg/mL (≈ 2.1 µM) |
| eremomycin |  | 10, female SHK mice, sepsis | intravenous, 30 min after infection, 10 days observation |  | dose for 100% survival | 4.5 mg/kg |

Some of these lines once more:
| Molecule | assay | system | conditions | how to read | quantity | result |
| --- | --- | --- | --- | --- | --- | --- |
| CCCCCCCOc1c(OC)cc(NC(C)CCCNC(=O)C(N)CCCCN)c2nc(C(C)(C)C)ccc12 (stereo not drawn) | bacterial growth | MRSA ATCC 33591 |  |  | IC50 | > 20 µg/mL |
| CC[C@H](C)[C@H](NC(=O)[C@H](C)NC(=O)[C@@H](NC(=O)[C@H](C)NC(=O)CNC(C)=O)[C@@H](C)O)C(=O)N[C@@H](CCCCN)C(=O)N[C@@H](CCC(N)=O)C(=O)N[C@H](C(=O)N[C@@H](CCCCN)C(=O)N[C@@H](CCCCN)C(=O)N[C@@H](CC(C)C)C(=O)N[C@@H](Cc1ccccc1)C(=O)N[C@@H](CCCCN)C(=O)N[C@@H](CCCCN)C(=O)N[C@@H](CCCCN)C(=O)NCC(=O)NCC(N)=O)C(C)C |  | ATCC 25923 | 24 h, 37 °C |  | MBC | > 620 µM |
| Myristoyl-FCPRRYKQIGTGLPGTKCK (disulfide 2-18 (inferred)) (N-myristoyl, disulfide; Myristoyl = CCCCCCCCCCCCCC(=O)*) |  | ATCC 8530 | MBC, 2 h, pH 7.4, 37 °C, together with: E. coli K-235 LPS at peptide:LPS 1:5 w/w |  | antibacterial activity | inhibited |
| CCCCCCCCOc1c(OC)cc(NC(C)CCCN)c2nc(C(C)(C)C)cc(C)c12 (stereo not drawn) |  | MRSA ATCC 33591 |  |  | MBC | > 20 µg/mL |
